Published values collected from several papers.
Protocols differ between the studies behind these lines. Several values in a cell are separate wells, animals, samples, runs or records. ± marks the error that the study gave.

Compound	target	test	test system	setting	scale	measurement	value
CC[S+]([O-])c1nc(-c2ccccc2)cc(C(F)(F)F)n1 (stereo not drawn)	transportin-1/2	FUS nuclear import, high content imaging	HeLa Kyoto reporter	0.5 µM, 2 h	–	cells with nuclear reporter	94.3% and 94.8%
Cc1cc(N(C)C)cc2oc(C(=O)NS(=O)(=O)c3ccccc3-c3ccccc3)cc12	estrogen receptor alpha, human	reporter gene	MCF7-MVLN	24 h	–	IC50	> 20 µM
O=C(O)[C@@H]1CCCN1c1ncnc2[nH]cnc12 (racemic)	human THEMIS domain	binding, affinity selection mass spectrometry	–	–	relative to: other proteins in batch	log fold enrichment	-0.0605
COc1cc(-c2cn(C)c(=O)c3cnccc23)cc(OC)c1CN1CCN(CCCCCOc2cc(-c3scnc3C)ccc2CNC(=O)[C@@H]2C[C@@H](O)CN2C(=O)[C@@H](NC(=O)C2(F)CC2)C(C)(C)C)CC1	BRD9 and VHL-elongin C-elongin B	SPR	immobilized BRD9	–	relative to: binary KD over ternary KD	cooperativity alpha	0.6
O=C(NN=Cc1ccc(C[n+]2ccccc2)cc1)c1ccc2ccc3ccc(C(=O)NN=Cc4ccc(C[n+]5ccccc5)cc4)nc3c2n1.[Br-].[Br-]	22CTA telomeric G4-DNA antiparallel	FRET melting	–	1 µM, K10 buffer, DNA 0.2 µM	–	ΔTm	34.8 ± 0.8 °C
[Ca+2]	human TRPA1	ion current, two-electrode voltage clamp	Xenopus oocytes	+80 mV, with: AITC	–	desensitization time constant	7.68 s and 21.4 s and 8.52 s and 20.5 s and 11.5 s
O=C(Nc1c[nH]nc1C(=O)NC1CCNCC1)c1cc(F)cc(F)c1	human FLT3 ITD F691L	scanMAX	–	1 µM	relative to: control	remaining binding	97%
COc1cc(C)c2cc(C(=O)NS(=O)(=O)c3ccccc3-c3ccccc3)oc2c1	estrogen receptor alpha, human	reporter gene	MCF7-MVLN	24 h	–	IC50	> 4.6 µM
O=C(C#Cc1cn(Cc2ccccc2)c(=O)[nH]c1=O)NCc1ccccc1	MMP-3	inhibitor, colorimetric	–	20 µM	–	remaining MMP-3 activity	96 ± 4%
O=S(=O)(NCCNC/C=C/c1ccc(Br)cc1)c1cccc2cnccc12	PKA	inhibitor	mouse zygotes	20 µM, Post hCG injection, 96 h, early embryonic development	–	embryos at morula stage	55% and 47.1%
O=C(Nc1ccn(Cc2ccc(O)cc2C(F)(F)F)n1)c1c(F)cccc1F	human GABA-A receptor	receptor activity, antagonist	–	–	–	IC50	> 10 µM
CCCCC[S+]([O-])c1n[nH]c(N)n1 (stereo not drawn)	human THEMIS domain	binding, affinity selection mass spectrometry	–	–	relative to: other proteins in batch	log fold enrichment	0.00794
CC(C)C[C@@H](C=O)NC(=O)[C@H](CC(C)C)NC(=O)[C@H](CC(C)C)NC(=O)OCc1ccccc1	p38 MAPK, human	degrader, western blot, refers to: p38 over tubulin	HeLa	concentration not given	relative to: untreated control	relative protein level	1.36
CCCCCCCC(=O)OC[C@H](COP(=O)(O)O[C@@H]1[C@H](O)[C@H](O)[C@@H](OP(=O)(O)O)[C@H](OP(=O)(O)O)[C@H]1O)OC(=O)CCCCCCC	Kv7.2/Kv7.3(EEE) mutant channel	activator	–	model 4, E2 and E3 fixed to wild type	–	maximal open probability	0.816
C=CCC(=O)OC/C1=C/C[C@@H](/C(C)=C/c2csc(C)n2)OC(=O)C[C@H](O)[C@@](C)(CC=C)C(=O)[C@H](C)[C@@H](O)[C@@H](C)CCC1	tubulin	tubulin assembly, stimulator	cell-free	–	–	EC50	0.88 ± 0.06 µM
O=C(O)CCCOc1cccc(CNC(=O)C#Cc2cn(Cc3ccc(C(=O)O)cc3)c(=O)[nH]c2=O)c1	MMP-3	inhibitor, FRET	–	10 µM	–	remaining MMP-3 activity	102 ± 1%
Cc1ccc(CNC(=O)Cn2cc(CSc3nc4ccccc4[nH]3)nn2)cc1	tubulin	tubulin polymerization, inhibitor	MDA-MB-231	50, 100, 500 ppm	–	geometric mean inhibition	23.7%
N#Cc1ccc(COc2cccc(C3CCN(Cc4nc5ccc(C(=O)O)cc5n4C[C@@H]4CCO4)CC3)n2)c(F)c1	sodium channel	–	–	10 µM	–	inhibition	61%
C#Cc1cc(-c2cc(Nc3nc(N[C@@H](C)c4ccc(F)cn4)ncc3Cl)n[nH]2)ccc1C=O	RET R921P, human	kinase activity, inhibitor	–	0.2 µM	–	inhibition	11.7% and 12.8%
CC(=O)N[C@H](C(=O)N1C[C@H](O)C[C@H]1C(=O)NCc1ccc(-c2scnc2C)cc1)C(C)(C)SCCCCCCNC(=O)C[C@@H]1N=C(c2ccc(Cl)cc2)c2c(sc(C)c2C)-n2c(C)nnc21	plectin (human)	TMT proteomics	HeLa	1 µM, 24 h	relative to: DMSO	relative protein abundance	1.03

Compound	target	test	test system	setting	scale	measurement	value
O=C(NOCC(O)CO)c1cc(Br)c(F)c(F)c1Nc1ccc(I)cc1F (stereo not drawn)	IDO1	kynurenine production	A-431	1 µM, with: IFN-gamma	–	inhibition	84.1%
O=C(NS(=O)(=O)c1ccccc1-c1ccccc1)c1cc2ccccc2o1	estrogen receptor alpha, human	reporter gene	MCF7-MVLN	24 h	–	IC50	> 20 µM
C=CCNC1=C2C[C@@H](C)C[C@H](OC)[C@H](O)[C@@H](C)/C=C(\C)[C@H](OC(N)=O)[C@@H](OC)/C=C\C=C(/C)C(=O)NC(=CC1=O)C2=O	MyBP-C	–	MYBPC3 iPSC-derived cardiomyocytes (human)	concentration not given, fresh powder retest	–	activity	inactive
COc1cnc(Nc2cccc(S(N)(=O)=O)c2)nc1N1CCN(c2ccccc2)C(=O)C1	human FLT3 ITD/F691L	binding, KINOMEscan	–	1000 nM	lower = stronger binding	percent of control	54%
COCCc1ccc2cc(C(=O)NS(=O)(=O)c3ccccc3-c3ccccc3)oc2c1	estrogen receptor alpha, human	reporter gene	MCF7-MVLN	24 h	–	IC50	> 15.6 µM
CCS(=O)(=O)c1nc(C2CC2)cc(C(F)(F)F)n1	transportin-1/2	FUS nuclear import, high content imaging	HeLa Kyoto reporter	0.05 µM, 2 h	–	cells with nuclear reporter	95.1% and 98.8%
Cc1ccc(N2CC(C(N)=O)CC2=O)cc1 (stereo not drawn)	human THEMIS domain	binding, affinity selection mass spectrometry	–	–	relative to: other proteins in batch	log fold enrichment	0
Oc1ccccc1-c1n[nH]cc1-c1ccnc2ccccc12	SKY1 (Candida albicans)	kinase binding, MIB/MS competition	Candida albicans lysate	1 µM	relative to: DMSO	log2 fold change	-0.41
CC(Nc1nc(N2CCCC2)nc2ccccc12)c1ccccc1 (stereo not drawn)	transportin-1/2	FUS nuclear import, high content imaging	HeLa Kyoto reporter	0.158 µM, 2 h	–	cells with nuclear reporter	93.5%
CC(C)C[C@H](NC(=O)[C@@H](O)[C@H](N)Cc1ccccc1)C(=O)O	aminopeptidase W (pig)	enzyme activity, inhibitor	–	–	–	IC50	7.9 µM
COc1cccc(CNC(=O)C#Cc2cn(Cc3ccc(C(=O)O)cc3)c(=O)[nH]c2=O)c1	MMP-7	inhibitor, colorimetric	–	20 µM	–	remaining MMP-7 activity	107 ± 23%
C=C(F)C(=O)N1CCN(c2nc(OC[C@@H]3CCCN3C)nc3c2CCN(c2cccc4cccc(Cl)c24)C3)C[C@@H]1CC#N	NRAS wild type (human)	SOS-mediated nucleotide exchange, inhibitor	–	concentration not given	–	inhibition	inactive
COc1ccc(C(=O)COc2ccc(N3C(=O)[C@@H]4[C@@H]5C=C[C@@H]([C@H]6C[C@@H]56)[C@@H]4C3=O)cc2)cc1	lanosterol synthase (mouse)	–	Mut6	0.1 µM, 24 h	–	peak EPC level	390 ng/mg protein
c1coc(-c2n[nH]cc2-c2ccnc3ccccc23)c1	SKY1 (Candida albicans)	kinase binding, MIB/MS competition	Candida albicans lysate	1 µM	relative to: DMSO	log2 fold change	0.26
C/C(=C\c1csc(C)n1)[C@@H]1C/C=C2\CCC[C@H](C)[C@H](O)[C@@H](C)C(=O)[C@](C)(CC=CCC(=O)OC2)[C@@H](O)CC(=O)O1	tubulin	tubulin assembly, stimulator	cell-free	–	–	EC50	2.4 ± 0.1 µM
C=CC(=O)Nc1cc(Nc2nccc(-c3cn(C)c4ccccc34)n2)c(OC)cc1N(C)CCN(C)C	DUSP4 human	cysteine engagement, chemoproteomic profiling, refers to: DUSP4 peptide 244-252	NCI-H2073	10 µM, 2 h	relative to: DMSO	log2 fold change	1.6
O=C1NC(=O)[C@](CNC(=O)c2cnn(Cc3nccs3)n2)(C2CC2)N1	ADAMTS7 and MMP12	enzyme activity, inhibitor	–	–	relative to: ADAMTS7 IC50 over MMP12 IC50	selectivity ratio	4.5
CNCc1ccc(-c2cc(-c3nc(-c4ccc(S(=O)(=O)C(C)C)cc4)cnc3N)on2)cc1	CK1 (yeast)	inhibitor	–	2 µM, with: ATP at Km	–	inhibition	8%
N=C(N)NCCC[C@@H](NC(=O)CCOCCOCCNC(=O)[C@H](CCCCNC(=O)CC[C@H](NC(=O)c1ccc(NCc2cnc3nc(N)[nH]c(=O)c3n2)cc1)C(=O)O)NC(=O)CO/N=C/[C@H](F)[C@@H](O)[C@H](O)[C@H](O)CO)C(=O)NCC(=O)N[C@H](CC(=O)O)C(N)=O [fluorine-18 labelled]	RGD-binding integrins	binding, saturation binding	MDA-MB-231	60 min, 4 °C	–	Kd	0.051 µM

For quick reference, copied from above:
Compound	target	test	test system	setting	scale	measurement	value
Cc1ccc(N2CC(C(N)=O)CC2=O)cc1 (stereo not drawn)	human THEMIS domain	binding, affinity selection mass spectrometry	–	–	relative to: other proteins in batch	log fold enrichment	0
CC(=O)N[C@H](C(=O)N1C[C@H](O)C[C@H]1C(=O)NCc1ccc(-c2scnc2C)cc1)C(C)(C)SCCCCCCNC(=O)C[C@@H]1N=C(c2ccc(Cl)cc2)c2c(sc(C)c2C)-n2c(C)nnc21	plectin (human)	TMT proteomics	HeLa	1 µM, 24 h	relative to: DMSO	relative protein abundance	1.03
